Published values from different studies.
Lines come from different studies, so protocols differ.
Cell line: A-375

Cc1cc(C)cc(/C=C(\C(=O)c2cc(C)[nH]c(=O)c2C(=O)N2CCCCC2)c2cc(C)cc(C)c2)c1  IC50 (cell proliferation, MTT; 72 h): > 10000 nM
CCN1C(=O)C(n2nc(-c3c(O)c4ccccc4oc3=O)cc2-c2ccc(Br)cc2)c2cc(Br)ccc21 (stereo not shown)  IC50 (cell growth or viability, SRB; 72 h): 47200 nM
CCCCCCCC(=O)NCCCC[C@H](N)C(=O)NCCCNCCCCNCCCN  EC50 (cell growth; 6 days, with: DFMO 5.0 mM, spermidine 0.5 µM, aminoguanidine 1.0 mM): 2000 nM
CCCOc1ccc(/C=C(\C(=O)c2cc(C)[nH]c(=O)c2C(=O)N2CCCCC2)c2ccc(OCCC)cc2)cc1  IC50 (cell growth or viability, MTT; 72 h): > 10000 nM
COc1cc(C(=O)c2cccc(-c3ccc(C)c(NC(C)=O)c3)n2)cc(OC)c1OC  IC50 (cell growth or viability, MTS; 72 h): 28.8 nM
Cn1cnc2c(F)c(Nc3ccc(Br)cc3Cl)c(C(=O)NOCCO)cc21  EC50 (cell proliferation): 42 nM
O=C1C(n2nc(-c3c(O)c4ccccc4oc3=O)cc2-c2ccc(F)cc2)c2cc(Cl)ccc2N1Cc1ccccc1 (stereo not shown)  IC50 (cytotoxicity, SRB; 72 h): 1100 nM
C=CC(=O)Nc1cccc(C(=O)Nc2ccc(Nc3nccc(-c4cccnc4)n3)cc2)c1  IC50 (c-Jun phosphorylation, microscopy, item: phospho-c-Jun Ser73; with: anisomycin): ~30 nM
O=C1C(n2nc(-c3c(O)c4ccccc4oc3=O)cc2-c2ccc(Br)cc2)c2cc(Br)ccc2N1Cc1ccccc1 (stereo not shown)  IC50 (cell growth or viability, SRB; 72 h): 5470 nM
Cc1cc(C(=O)/C(=C\c2ccccc2C)c2ccccc2C)c(C(=O)N2CCCCC2)c(=O)[nH]1  IC50 (cell proliferation, MTT; 72 h): > 10000 nM

For quick reference, copied from above:
CCCOc1ccc(/C=C(\C(=O)c2cc(C)[nH]c(=O)c2C(=O)N2CCCCC2)c2ccc(OCCC)cc2)cc1  IC50 (cell growth or viability, MTT; 72 h): > 10000 nM
